Results collected from several papers.
Numbered parts are unrelated; each lists some results of a single study.

Study 1 — technique: RNA Bind-n-Seq; molecule type: RNA; sample: in vitro; tested at: 200 nM; setting: whole 134-nt RNA, ends assumed; together with: 150 mM KCl; relative to: input library; direction: higher = stronger binding
Target: Fragile X messenger ribonucleoprotein 1, C-terminal low-complexity region (Fmr1, Mus musculus, UniProt P35922)
Sequence | log2 enrichment
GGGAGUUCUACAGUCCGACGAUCUCCUGUGCUACACAUCGUAUGUACCGAAUCGGAAAAAAGGGAAAAAAGGGAAAAAAGGGAAAGUAUUAUGUUACGCCGUUCGGAUCUGCAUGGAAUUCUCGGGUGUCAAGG | -0.248
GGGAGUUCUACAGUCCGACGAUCAGUCCUGUGCUACACAUCGUAUGUACCGAAUCGGGGUUUUUGGGGAAAGGGGUGGGGAAAGUAUUAUGUUACGCCGUUCGGAUCUGCACUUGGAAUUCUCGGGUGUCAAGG | 0.537
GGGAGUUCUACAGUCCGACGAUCUUUCCCCUGGAGGGCGCCUCCAUCCUUGGAGGCCUAGUGCCGUCGGAGAGAGAGCGGGAGCCGCGGACAGAGACGCGUGCGCAAUUCGGAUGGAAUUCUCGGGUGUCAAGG | -1.21
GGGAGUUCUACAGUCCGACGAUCCUGUGCUACACAUCGUAUGUACCGAAUCGGGGAAAAAGGGGUUUUUUUGGGGUUUUUGGGGAAAGUAUUAUGUUACGCCGUUCGGAUCUGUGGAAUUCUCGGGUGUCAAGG | 0.0229
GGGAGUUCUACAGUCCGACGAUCAAGUCCUGUGCUACACAUCGUAUGUACCGAAUCGGAAAAAGGAAAAAAAGGAAAGGAAAGUAUUAUGUUACGCCGUUCGGAUCUGCACUUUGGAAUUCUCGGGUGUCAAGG | -0.952
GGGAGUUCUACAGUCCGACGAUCUGUGAGAUUAAACUUGCCCCCAAACGAUCUCGUUUGGAGACUAGAGCUGGAGAAGAAGAUGAAGGAGAAGAGGAUUCUGAUUCUGAUUAUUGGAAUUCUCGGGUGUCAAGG | -0.828
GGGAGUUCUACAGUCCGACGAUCCACAGACAACACGCACCCACACAGACACAGAGGGAAGGGGAAAGGAUGGGGACAGGGUGCACAGCAGGGCGGGGUAGGACCCCAGCCCCUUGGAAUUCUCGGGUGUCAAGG | 1.05
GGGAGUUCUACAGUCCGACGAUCUAACUUUAGAGGAGGAUCUGAUGGAUAUGGCAGUGGACGUGGAUUUGGGGAUGGCUAUAAUGGGUAUGGAGGAGGACUUGGAGGUGGCAAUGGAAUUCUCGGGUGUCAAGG | 0.098
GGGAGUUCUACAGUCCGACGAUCUCAAGUCCUGUGCUACACAUCGUAUGUACCGAAUCGGGUUUGGGGUUUGGUUUGGAAAGUAUUAUGUUACGCCGUUCGGAUCUGCACUUCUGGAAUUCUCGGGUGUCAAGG | -0.135
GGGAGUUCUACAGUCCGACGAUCCAAGUCCUGUGCUACACAUCGUAUGUACCGAAUCGGUUUGGGUUUGGGUUUGGGGAAAGUAUUAUGUUACGCCGUUCGGAUCUGCACUUCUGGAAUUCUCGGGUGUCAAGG | -0.0314

Study 2 — technique: universal PBM; molecule type: double-stranded DNA, one strand shown; sample: in vitro; tested at: not given; direction: higher = stronger binding
Target: Sal-like protein 4, full length isoform B (SALL4, Homo sapiens, UniProt Q9UJQ4-2, residues 1-616)
Setting: 8-mer, flanks averaged, mean of replicates
Target sequence (chain): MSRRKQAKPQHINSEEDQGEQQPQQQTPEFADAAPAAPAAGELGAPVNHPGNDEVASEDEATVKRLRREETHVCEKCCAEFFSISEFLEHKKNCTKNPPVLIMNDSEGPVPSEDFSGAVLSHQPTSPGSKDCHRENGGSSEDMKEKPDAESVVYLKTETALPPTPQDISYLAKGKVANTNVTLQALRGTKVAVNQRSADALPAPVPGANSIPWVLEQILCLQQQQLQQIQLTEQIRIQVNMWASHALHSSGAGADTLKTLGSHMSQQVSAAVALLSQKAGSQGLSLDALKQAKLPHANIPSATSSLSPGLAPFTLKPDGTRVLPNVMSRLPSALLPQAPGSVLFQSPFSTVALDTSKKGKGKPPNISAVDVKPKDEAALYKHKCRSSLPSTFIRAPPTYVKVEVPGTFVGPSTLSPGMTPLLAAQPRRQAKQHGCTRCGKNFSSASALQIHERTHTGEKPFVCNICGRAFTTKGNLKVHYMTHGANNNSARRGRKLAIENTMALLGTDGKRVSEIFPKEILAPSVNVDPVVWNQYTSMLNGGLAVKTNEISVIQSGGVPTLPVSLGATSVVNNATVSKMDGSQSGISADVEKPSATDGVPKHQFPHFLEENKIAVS
Sequence | E-score
GGTCATGA | 0.0438
GCACAGCC | -0.304
CGGGGACG | -0.246
AAATGACT | 0.225
ACATGTAC | 0.0877
GAATCACA | -0.152
AGTCATAT | 0.36
AGCTTCTC | -0.18
CAGGCCTA | -0.162
GTTAATTA | 0.349
CGGTTTGC | -0.215
CCATCAGG | -0.334
ATCCTTAA | 0.0334
AGGCCAAG | -0.15
CCACGGTC | -0.412
CGCAGGTA | -0.0422

Study 3 — technique: protein binding microarray; molecule type: double-stranded DNA, one strand shown; sample: in vitro; tested at: not given; relative to: not given; direction: higher = stronger binding
Target: Histone acetyltransferase KAT6A, winged helix 1, GST fusion (KAT6A, Homo sapiens, UniProt Q92794, residues 1-85)
Setting: 8-mer, flanks averaged, mean of 2 arrays, mostly near background
Construct (chain): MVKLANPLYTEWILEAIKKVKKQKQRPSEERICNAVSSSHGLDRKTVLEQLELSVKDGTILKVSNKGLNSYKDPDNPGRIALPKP
Sequence | E-score
AAGGGCTG | -0.192
CCGGCGGA | 0.466
CTCTTCAA | -0.1
ACCGCTTA | 0.171
AATGTGGA | -0.191
CTTCGTAC | -0.00807
ACTGCACC | -0.0548
ACATTGGA | -0.0464
TCGTAGAA | -0.272
CCGCGCGA | 0.402
CTACCATA | -0.125
TCTAGAAA | -0.0787
AAGTTGGT | -0.294
CGGCTGAC | 0.285
ACGGCCTA | 0.295
CATCCGAA | -0.0221
GCGGTAGC | 0.247
CAACAGTA | -0.246
ACCTAAGA | -0.125
CCGGTGAG | 0.0992
ATGGGAGG | -0.131
AAAGGTGG | -0.152
ATTCCCGA | 0.145
CCATAGAC | -0.115

Study 4 — technique: RNA Bind-n-Seq; molecule type: RNA; sample: in vitro; tested at: not given; setting: RNA with constant flanks, ends assumed; relative to: input RNA pool; direction: higher = stronger binding
Target: RING finger protein unkempt homolog, zinc fingers 1-6, GST-SBP tag (UNK, Homo sapiens, UniProt Q9C0B0, residues 30-357)
Chain of UniProt Q9C0B0 (30-357, looked up): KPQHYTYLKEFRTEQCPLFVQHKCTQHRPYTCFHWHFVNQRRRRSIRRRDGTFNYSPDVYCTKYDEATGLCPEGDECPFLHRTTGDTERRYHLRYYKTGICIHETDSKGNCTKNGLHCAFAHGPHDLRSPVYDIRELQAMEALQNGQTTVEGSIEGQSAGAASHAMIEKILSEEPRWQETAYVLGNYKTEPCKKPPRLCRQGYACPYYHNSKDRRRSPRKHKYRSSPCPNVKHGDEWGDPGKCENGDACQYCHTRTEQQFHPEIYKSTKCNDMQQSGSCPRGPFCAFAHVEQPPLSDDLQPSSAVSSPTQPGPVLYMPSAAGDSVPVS
Sequence | bound/input enrichment [ratio]
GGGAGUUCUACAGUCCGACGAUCAAGGAGGCAGAGGGUCAGAGCUUGGUGGUUUAUCUUUUCCUUGUUUCUCCUUGUUUCUGUUUCCGAAAUGAAGUGUGGGGGUUUAAAUGGCACUUAAACUGCACCCUGGAGCCGGCAGAACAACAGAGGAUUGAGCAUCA | 0.32
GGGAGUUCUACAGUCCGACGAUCAUUAGAAAUGAUACCUUCAGUGACUCACCAGUUUGGCCAUGGAUCCCAUCAUUGUCUGAUGCCGCAGCUGUGUUUUUCAAUAUGGGGAUUGAUUUUAGAUCUUUGUUUCCCCUGGAGAAUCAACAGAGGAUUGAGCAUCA | 0.199
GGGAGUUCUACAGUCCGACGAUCAUUUCACAAAGCUCCCGAAUCUGGCUUUGUCCUCACUGUCGGAGGUCAGAGAAGCCUCCAUCCGAGAAAAUUCUGCCUCUGCUGGCCUCCCUACAGCGUAUACGAGUUCGUCUUCCUGAACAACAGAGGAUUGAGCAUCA | 0.175
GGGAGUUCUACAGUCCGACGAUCAGUUUGGGCUUUGGCUCUUACAUCAGUGAAGUAAAAGAAGUCUUACAAGAAUGCAAGACAGCCGCAUUAAAAAGAAGAAAGGCCAGUUCUCGUUUGGAAAACCUCGGCAUUCCUGAAGAGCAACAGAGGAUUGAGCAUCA | 0.123
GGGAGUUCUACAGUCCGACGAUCCAGGGAGUGGGUGACAUAGAGCAUUCUAUGCCUUUGACAUUGUCAUAGGAUAAGCUGUGUCCGCACUUCCUCAGGAAAUGAGAUUGAUUUUUACAAUAGCCAAUAACAUUUGCACUUUAUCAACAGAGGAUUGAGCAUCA | 0.516
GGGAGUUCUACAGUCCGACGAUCGCUCCACCUGCCCCAGCUCUGCCCGGUGUGGAAGAAGCAAGUGUCCUAAGCACCUAACUCCCGUUUUGUUACAAGUAUAACUUAGGAGAAAAAAUUGGUAGAAAUAAUACAGUAUGUUGCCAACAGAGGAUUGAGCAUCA | 19.9

Study 5 — technique: RNA Bind-n-Seq; molecule type: RNA; sample: in vitro; tested at: 365 nM; relative to: no-protein control; direction: higher = stronger binding
Target: RNA binding protein fox-1 homolog 2, RRM domain, GST-SBP tag (RBFOX2, Homo sapiens, UniProt O43251-10, residues 100-194)
Setting: natural RNA segment, single round, ends assumed
Residues (chain): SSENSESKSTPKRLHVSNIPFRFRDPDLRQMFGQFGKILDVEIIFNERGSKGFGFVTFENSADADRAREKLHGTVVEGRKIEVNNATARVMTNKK
Sequence | RBNS enrichment (R)
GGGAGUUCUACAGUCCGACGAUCAGUUUUUAAAAUGCUUACUACAUACUUAUAUACACCCCUUGUGAAGAACACAUGACUUUUUAAAGAAAAUUACUAAGCAAACUGGAAAAGUGAAGUAUUUUCAUAGUGAUUGGAAUUCUCGGGUGCCAA | 0.472
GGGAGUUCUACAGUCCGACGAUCGAUAAAGAGAAGGAAACGCUGCAGAGGCACAAGCAUAAGCUGGCUUUGAGUCUUUGAAAGCUUGAUGGCCUCUGCACCCUACUGAAAACCCCCUAAGCCAGCAGGAGCAGUGGAAUUCUCGGGUGCCAA | 0.376
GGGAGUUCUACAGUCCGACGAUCUCAUCAUUCAUUCAUUCACCUAACUUUCAUUAAAUAGCUGCACCAUCCCAGGCCCUGUGCGGAGCAUCGGGAAUACAAAGAUGAGAUAAAACAUUGUCCCUGCCCCCGGGUGGAAUUCUCGGGUGCCAA | 0.448
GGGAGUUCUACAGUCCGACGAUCAGAUGUCCAAACUAAUUUUAACAAACGCAUUAAGAGGUUUAUUUGGGUACAUGGCCCGCAGUGGCUUUUGCCCCAGAAAGGGGAAAGGAACACGCGGGUAGAUGAUUUCUUGGAAUUCUCGGGUGCCAA | 0.364
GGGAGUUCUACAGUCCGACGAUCGCGUCUUCUGUGACCCUCACUACCUGCACUGCUUGCAUCCCUGCUUUAUGCCUGGUGGCACAUUAUUCACCCGGUAACCUCCAGCUGCUUUGAUCCUGUUUCAGUCAAAGUGGAAUUCUCGGGUGCCAA | 2.91
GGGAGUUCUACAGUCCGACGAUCGAGAGUUUGCAAACACACAGCGGCCCACAGCUUCACGUGGUGGUGUGCAGUGUGAGGCAGCUCCUUGGCUUUCCUGGUUUUCACAACAAGCUAGAGAUUUUCAAAGCUACUGGAAUUCUCGGGUGCCAA | 0.234
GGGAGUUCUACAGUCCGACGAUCAACCGAGACUCUUCUCUGUUUCCUGCCAAGACCUCAUCUGCACUAAUGCCUUCUCCCUGACCUUGACACUUCCCCCUUUAGCUAUAAAAGCACUUACCAGCCGAACGUGGUGGAAUUCUCGGGUGCCAA | 0.895
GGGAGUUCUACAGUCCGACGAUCUAGGGGCAAAGGCGUGUGGAUGGUGCCAAUGAAACCCUUUACCUAUUUAAUAAAAACGGAUACAUUUAUACUGUGGACAGCUUUCUUUGGGGCAUACCAUAGUCUCCCUAUGGAAUUCUCGGGUGCCAA | 0.752
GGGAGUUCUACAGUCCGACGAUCACUCCGUCUCAAAAAGAAAAAGUUUGGAUCAGGCAGGGUGGCUCACACCUGUAAUCCCUGCACUUUGGGAGGCCAAGGUGGGAGGAUCAGUUGAGCCCCAGAGUUCAAGAUGGAAUUCUCGGGUGCCAA | 0.396
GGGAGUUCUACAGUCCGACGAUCUGAUUUUUCAUAGUUUUAACUAGAUUUCCAAGAUAUUUUGUGCAUUUGUUUCAACUGAAUUUUGGUGGUGUCAGUGCCAUUAUCUAGCACCCUGAUUUUUUUUUUUUUACUGGAAUUCUCGGGUGCCAA | 1.14
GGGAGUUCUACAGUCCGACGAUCAGGGAAAUUAUUGCAGAAGAAUGCCUUUCCCUCAUUUUAUAACUUUAAAAACUUGGAUUAACCACUCAAUGUCCACUUUCUUUGACUUACAGUAUAACCAUGUAGCCAAUUGGAAUUCUCGGGUGCCAA | 0.896
